Measurements from different studies.
Lines come from different studies, so protocols differ. Numbers after ± are the reported error.
AR: Androgen receptor (AR, Homo sapiens, UniProt P10275)
Chain of UniProt P10275 (whole entry, unmodified, looked up): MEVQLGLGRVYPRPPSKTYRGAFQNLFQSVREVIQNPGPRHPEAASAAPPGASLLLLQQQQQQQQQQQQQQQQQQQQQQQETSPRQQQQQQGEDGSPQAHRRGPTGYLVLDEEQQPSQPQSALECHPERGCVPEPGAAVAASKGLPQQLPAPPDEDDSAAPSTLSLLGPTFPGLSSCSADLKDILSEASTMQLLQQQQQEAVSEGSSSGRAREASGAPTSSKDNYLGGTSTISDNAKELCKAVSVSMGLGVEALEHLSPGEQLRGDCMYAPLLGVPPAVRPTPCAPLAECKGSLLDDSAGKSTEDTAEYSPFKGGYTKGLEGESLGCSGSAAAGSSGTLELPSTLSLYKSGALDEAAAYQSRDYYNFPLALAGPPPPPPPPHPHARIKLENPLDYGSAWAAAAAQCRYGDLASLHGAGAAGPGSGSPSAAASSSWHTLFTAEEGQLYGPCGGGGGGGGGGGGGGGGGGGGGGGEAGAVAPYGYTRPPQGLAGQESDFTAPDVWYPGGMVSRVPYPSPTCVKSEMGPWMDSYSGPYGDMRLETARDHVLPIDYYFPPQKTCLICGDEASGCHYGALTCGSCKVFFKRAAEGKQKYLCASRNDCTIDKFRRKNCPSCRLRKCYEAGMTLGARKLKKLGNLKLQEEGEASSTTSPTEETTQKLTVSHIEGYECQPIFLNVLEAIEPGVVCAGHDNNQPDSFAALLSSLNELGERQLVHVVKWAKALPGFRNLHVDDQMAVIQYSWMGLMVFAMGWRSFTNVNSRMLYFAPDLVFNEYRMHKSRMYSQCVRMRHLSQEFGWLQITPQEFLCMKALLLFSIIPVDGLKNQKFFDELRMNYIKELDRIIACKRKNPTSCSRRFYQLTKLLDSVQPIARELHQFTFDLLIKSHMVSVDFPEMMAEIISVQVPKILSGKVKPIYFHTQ

CC(=O)N1CCN(CCOc2ccc(C3CCN(C4=Nn5c(nnc5C(F)(F)F)CC4)CC3)cc2)CC1
IC50 (AR; antagonist, nuclear translocation; primary screen, top 100 µM): 10.9 µM

C[C@]12CC[C@@H]3c4ccc(O)cc4C[C@@H](CCCCCCCCC[S+]([O-])CCCC(F)(F)C(F)(F)F)[C@H]3[C@@H]1CC[C@@H]2O (stereo partly drawn)
IC50 (AR; antagonist, cell-based): > 10 µM

O=C1NC(=O)c2cc(Nc3ccccc3)c(Nc3ccccc3)cc21
IC50 (Androgen receptor (AR, Homo sapiens, UniProt P10275, Q868H); antagonist; with: R1881 2 nM): 19.3 ± 4.42 µM

CC1(C)NC(=O)N(c2ccc(F)c(F)c2)C1=O
IC50 (AR; reporter gene, antagonist; LAPC4; 24 h, with: DHT 10 nM): 8.3 µM

C[C@H](CCC(=O)O)[C@H]1CC[C@H]2[C@@H]3CC=C4CC(=O)CC[C@]4(C)[C@H]3CC[C@]12C
IC50 (AR; reporter gene, antagonist, luciferase reporter; cells expressing human AR; with: 45 pM agonist): 0.119 µM

CCCCCCOC(=O)c1ccccc1C(=O)c1ccc(N(CC)CC)cc1O
EC50 (AR; reporter gene, agonist): > 100 µM

CC1(C(F)(F)F)NC(=O)N(c2ccc(F)c(C(F)(F)F)c2)C1=O (stereo not drawn)
IC50 (AR; reporter gene, antagonist; LAPC4; 24 h, with: DHT 10 nM): 5.2 µM

Clc1ccc(COC(Cn2ccnc2)c2ccc(Cl)cc2Cl)c(Cl)c1 (stereo not drawn)
IC50 (AR; human cells): 1.22 µM

CCC(F)(F)c1cc(N2C(=O)NC(C)(C)C2=O)ccc1F
IC50 (AR; reporter gene, antagonist; LAPC4; 24 h, with: DHT 10 nM): > 100 µM

Repeated from above:
Clc1ccc(COC(Cn2ccnc2)c2ccc(Cl)cc2Cl)c(Cl)c1 (stereo not drawn)
IC50 (AR; human cells): 1.22 µM
